Published values pooled from the literature.
Compare with care: the assays were run in different laboratories. ± marks the error that the study gave. ≈ marks a conversion by molar mass, not a printed value.

`Cc1c(-c2ccc(N3CCc4cccc(C(=O)Nc5nc6ccccc6s5)c4C3)nc2C(=O)O)cnn1CC12CC3(C)CC(C)(C1)CC(OCCNCC[C@H](O)CO)(C3)C2` — result for “mean arterial pressure change”: 3 mmHg (beagle dog, male, anaesthetised; intravenous infusion, 0.01 mg/kg/min, 105 min; baseline: baseline).
With `CO[C@H]1C[C@@H]2CC[C@@H](C)[C@@](O)(O2)C(=O)C(=O)N2CCCC[C@H]2C(=O)O[C@H]([C@H](C)C[C@@H]2CC[C@@H](O)[C@H](OC)C2)CC(=O)[C@H](C)/C=C(\C)[C@@H](O)[C@@H](OC)C(=O)[C@H](C)C[C@H](C)/C=C/C=C/C=C/1C` the rectal temperature was 37 ± 0.4 °C (healthy adult horses; oral, 0.06 mg/kg, 24 h).
`COc1cc([C@H]2Oc3cc([C@H]4Oc5cc(O)cc(O)c5C(=O)[C@@H]4O)ccc3O[C@@H]2CO)ccc1O` gave an AUC(0-4h) of 0.36 µM·h (FVB wild-type mice, plasma; oral gavage, 500 mg/kg silymarin, geometric mean).
For `CC(C)(C(=O)N1CCOc2c(C#N)cncc2C1)C(F)F`, “subjects with adverse event” read 0% (measured: Dermatitis; human; oral, 20 mg twice daily, 14 days, multiple ascending dose).
`O=C(OC(C(F)(F)F)C(F)(F)F)N1CCN(Cc2cccc(Oc3ccccc3)c2)CC1` has a k2 of 23.2 min⁻¹ (PET blocking study; rhesus monkey, brain HIP; 0.1 mg/kg, compound pretreatment, added: [18F]T-401 tracer).
`CCCC1CCC(c2ccc(-c3ccc(F)c(F)c3)cc2)CC1` (centres unmarked): “median fetal accumulation” 0.06 ng/g (Sprague-Dawley rat, female, fetus; 5000 ng/mL in perfusate, 50 (unit not given), high dose, mixture of 21 LCMs).
`C[C@@H](Nc1cc(F)cc(F)c1)c1cc(C(=O)N(C)C)cc2c(=O)cc(N3CCOCC3)oc12` — result for “related serious adverse events”: 0% (measured: Pain; advanced solid tumour patients; oral, dose not given, dose finding).
For `C=CC(=O)Nc1cc(Nc2nccc(-c3cn(C)c4ccccc34)n2)c(OC)cc1N(C)CCN(C)C`, the recovery was 105% (storage stability; human dried blood spots; 24 h, -80 °C, high QC level).
`C1=C/COCc2cc(ccc2OCCN2CCCC2)Nc2nccc(n2)-c2cccc(c2)COC/1` — result for “stability relative error”: 0.79% (rat plasma; 600 ng/mL, 1 months, -20 °C, long-term storage; baseline: nominal concentration).
`C[C@@H](O)[C@H](NC(=O)c1ccc(C#Cc2ccccc2)cc1)C(=O)NCC1(C)NC(=O)NC1=O` (some centres unmarked) has a thermodynamic solubility of 513 µM (≈ 230 µg/mL) (aqueous buffer; pH 7.4).
Under “grade ≥3 adverse event Diarrhea”, `Cc1cc(C)c(CNC(=O)c2cc(Cl)c3c(c2C)O[C@@](C)([C@H]2CC[C@H](N(C)C)CC2)O3)c(=O)[nH]1` is recorded as 4.2% (relapsed/refractory NHL patients; oral, 200 mg once daily, onset after cycle 1 day 1).
`Cn1cc(Nc2nccc(-c3ccc4c(c3)CN(C3COC3)CC[C@H]4NC(=O)c3cn(C(C)(C)C)nn3)n2)cn1` — result for “class-switched memory B cell change”: 51% (human, whole blood; 300 mg twice daily, day 14; baseline: pre-dose baseline).
With `Nc1ncnc2c1ncn2[C@H]1C[C@@H]2OP(=O)(O)OC[C@H]3O[C@@H](n4cnc5c(N)ncnc54)C[C@@H]3OP(=O)(O)OC[C@H]2O1` the haematocrit was 25.1 ± 1.39% (non-tumor-bearing mice, blood; intravenous, 1 mg/kg, toxicity study).
`NS(=O)(=O)OC[C@@H]1C[C@@H](n2ccc3c(N[C@H]4CCc5ccccc54)ncnc32)C[C@@H]1O` gave a clearance of 19.2 L/h/m² (human males, plasma; median, BSA-adjusted).
`COc1ccc2c(c1)CN(C(=O)CCN1CCC(Cc3ccccc3)CC1)CC[S@@+]2[O-]`: “systolic blood pressure” 134 ± 17 mmHg (telemetry; conscious male beagle dogs; intravenous, 4 mg/kg, 0.5 h).
For `C=CC(=O)N1CCC(Oc2cc3c(Nc4ccc(Cl)c(Cl)c4F)ncnc3cc2OC)CC1`, the AUC(0-inf) was 3820 ± 495 ng·h/mL (male Sprague-Dawley rats, plasma; oral, 2 mg/kg).
The MRT of `O=C(O)c1cc(O)c(O)c(O)c1` is reported as 6.08 ± 0.44 h (rat, plasma; oral, 1000 mg/kg extract, possible metabolite or extract component).
`CCOc1c([C@H](C)n2nc(C)c3c(N)ncnc32)cc(Cl)c(F)c1[C@@H]1CNC(=O)C1`: “observations with HR above 100 bpm” 2.4% (ECG; previously treated B-cell malignancy patients; oral, 30 mg once daily, baseline below thresholds).
With `CNCc1ccc(-c2[nH]c3cc(F)cc4c3c2CCNC4=O)cc1` the nausea incidence was 11.5% (human patients; oral, 600 mg twice daily, grade 2).
`Nc1ccc(C=Cc2ccc([125I])cc2)cc1`: storage stability “stable” (HPLC; up to 8 h, room temperature).
